Measured values from different studies.
Every numbered part comes from another study and shows a few of its results, in no order. Substitutions count along the parent as printed.

Sample 1
Target: UBE2G2 UBC core domain (UniProt P60604)
Technique: yeast two-hybrid
Matrix: yeast
Notes: mostly zero background
Relative to: not given
Direction: higher = stronger interaction
B1: UBOX5 RING domain (UniProt O94941); chain EQPGSILGPECASCKRVFSPYFKKEPVYQLPCGHLLCRPCLGEKQRSLPMTCTACQRPVASQDVLR
B2: DZIP3 RING domain (UniProt Q86Y13); chain PDEEEEEEEPCVICHENLSPENLSVLPCAHKFHAQCIRPWLMQQGTCPTCRLHVLLPEEFP
B3: SYTL4 RING domain (UniProt Q96C24); chain RGSQHYSDRTCARCQESLGRLSPKTNTCRGCNHLVCRDCRIQESNGTWRCKVCAKEIELKKAT
B4: DTX2 RING domain (UniProt Q86UW9); chain EELKVPPDEDCIICMEKLSTASGYSDVTDSKAIGSLAVGHLTKCSHAFHLLCLLAMYCNGNKDGSLQCPSCKTIYGEKTGTQ
B5: SH3RF1 RING domain (UniProt Q7Z6J0); chain DESALLDLLECPVCLERLDASAKVLPCQHTFCKRCLLGIVGSRNELRCPECRTLVGSGVEEL
B6: RNF121 RING domain (UniProt Q9H920); chain MPTKHLSDSVCAVCGQQIFVDVSEEGIIENTYRLSCNHVFHEFCIRGWCIVGKKQTCPYCKEKVDLKRMFS
Residues (chain): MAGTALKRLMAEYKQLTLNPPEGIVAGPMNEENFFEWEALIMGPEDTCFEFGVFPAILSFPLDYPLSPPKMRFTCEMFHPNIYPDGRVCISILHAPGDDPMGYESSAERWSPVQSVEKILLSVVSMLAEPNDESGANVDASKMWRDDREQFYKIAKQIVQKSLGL
| Molecule | lacZ reporter activity |
| --- | --- |
| YQNEVDDDLVCHICLQPLLQPLDTPCGHTFCYKCLRNFLQEKDFCPLDRKRLHFKLCKK (LNX2 RING domain (UniProt Q8N448)) | 0 |
| B1 (UBOX5 RING domain) | 0 |
| B2 (DZIP3 RING domain) | 0 |
| B3 (SYTL4 RING domain) | 0 |
| AVPSGLEENLCKICMDSPIDCVLLECGHMVTCTKCGKRMNECPICRQYVIRAVHVF (RFFL RING domain (UniProt Q8WZ73)) | 11500 |
| GSDDEEIPFKCFICRQSFQNPVVTKCRHYFCESCALQHFRTTPRCYVCDQQTNGVFNPA (RNF113A RING domain (UniProt O15541)) | 0 |
| B4 (DTX2 RING domain) | 0 |
| NLSELTPYILCSICKGYLIDATTITECLHTFCKSCIVRHFYYSNRCPKCNIVVHQTQPLY (PCGF6 RING domain (UniProt Q9BYE7)) | 0 |
| PEDRESLKSACVVCLSSFKSCVFLECGHVCSCTECYRALPEPKKCPICRQAITRVIPLY (MUL1 RING domain (UniProt Q969V5)) | 13600 |
| B5 (SH3RF1 RING domain) | 0 |
| B6 (RNF121 RING domain) | 0 |

Sample 2
Target: RING finger protein unkempt homolog, zinc fingers 1-6, GST-SBP tag (UNK, Homo sapiens, UniProt Q9C0B0, residues 30-357)
Technique: RNA Bind-n-Seq
Molecule type: RNA
Matrix: in vitro
Tested at: not given
Notes: RNA with constant flanks, human and mouse sites, ends assumed
Relative to: input RNA pool
Direction: higher = stronger binding
All sequences stand within: GGGAGUUCUACAGUCCGACGAUC … CAACAGAGGAUUGAGCAUCA
Target sequence (chain): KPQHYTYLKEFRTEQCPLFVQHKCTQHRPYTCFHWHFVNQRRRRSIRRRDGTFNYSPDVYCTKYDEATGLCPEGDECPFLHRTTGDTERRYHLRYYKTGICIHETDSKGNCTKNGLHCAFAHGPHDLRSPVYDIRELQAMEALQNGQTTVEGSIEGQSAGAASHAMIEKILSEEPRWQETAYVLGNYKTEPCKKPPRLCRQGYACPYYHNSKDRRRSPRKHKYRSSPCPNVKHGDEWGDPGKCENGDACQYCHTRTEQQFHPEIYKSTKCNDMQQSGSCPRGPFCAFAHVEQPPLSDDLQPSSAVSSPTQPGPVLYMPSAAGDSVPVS
| Strand | bound/input enrichment |
| --- | --- |
| UCAGCUAAAGCAGCUAUUGACUGGUUUGAUGGUAAAGAAUUCUCCGGAAAUCCUAUCAAGGUCUCAUUUGCUACUCGCCGGGCAGACUUUAAUCGGGGUGGUGGCAAUGGUCGUGGAGGC | 0.0854 ratio |
| UAUCCAGUUAAAAAACGGGUGAAAAUACAUCCCAACACAGUGAUGGUGAAAUAUACUUCUCAUUAUCCCCAGCCUGGCGAUGAUGGAUAUGAAGAAAUCAAUGAAGGCUAUGGAAAUUUU | 0.162 ratio |
| CCUCCCUGGAAUUUUUCUUGGAAGCCCCAUCAGUCCUUCUCUCUAUAUUUAUUUAUAAUGCCAGCAAGCCUCAAGUUCCGGAAUACGCACCUAGGCAAGAAAGGAUCCGAGAUCUAAGUG | 1 ratio |
| CGAGCUGGAUCCAGAGUUGCAUACAGACCAAUUUCUGCAUCAGUGUUAUCUCGACCAGAGGCUAGUAGGACUGGAGAGGGCUCUACGGUAUUUAAUGGGGCCCAGAAUGGUGUGUCUCAG | 0.14 ratio |
| GGAGUUUUUUAACUGAUUUAGCCAGGUGGCAAUCAUGAGUGAAUGGAUGAAGAAAGGCCCCUUAGAAUGGCAAGAUUACAUUUACAAAGAGGUCCGAGUGACAGCCAGUGAGAAGAAUGA | 0.567 ratio |
| UGGUUGCUCCUUUGUCAAACUGGGAUGAAAGCAAUGGCUAUUCCUCUGUUCUUUCAGAUAGUAAUGGGAGCUUUUACUGGCUUACAUCAUUACAAUAUAUGUGAAAAACCACGUGCAAGG | 0.213 ratio |
| AUGAAGCCAGCCGGUACAGACCCAAGGAUCUUGUCUUUAGCUGCUGAAGUUGCAAAAAGUCCUGAACAAAAUGUUCCUGUUAUAUUAUUGAAGUUAAAAGAAAUAAUAAACAACACCCCU | 0.113 ratio |
| UGAGCAUCCCCAAAGUGUAACGUAGAAGCCUUGCAUCCUUUUCUUGUGUAAAGUAUUUAUUUUUGUCAAAUUGCAGGAAACAUCAGGCACCACAGUGCAUGAAAAAUCUUUCACAGCUAG | 0.476 ratio |

Sample 3
Target: Phosphate system positive regulatory protein PHO4, full length, GST-tagged (PHO4, Saccharomyces cerevisiae, UniProt P07270, residues 1-312)
Technique: competition protein-binding microarray
Molecule type: double-stranded DNA, one strand shown
Matrix: in vitro
Tested at: 2 µM
Notes: whole 60-bp probe, lowest competitor level
Together with: Cbf1 competitor, 0.05 µM
Direction: higher = stronger binding
All sequences stand within: … GTCTTGATTCGCTTGACGCTGCTG
Residues (chain): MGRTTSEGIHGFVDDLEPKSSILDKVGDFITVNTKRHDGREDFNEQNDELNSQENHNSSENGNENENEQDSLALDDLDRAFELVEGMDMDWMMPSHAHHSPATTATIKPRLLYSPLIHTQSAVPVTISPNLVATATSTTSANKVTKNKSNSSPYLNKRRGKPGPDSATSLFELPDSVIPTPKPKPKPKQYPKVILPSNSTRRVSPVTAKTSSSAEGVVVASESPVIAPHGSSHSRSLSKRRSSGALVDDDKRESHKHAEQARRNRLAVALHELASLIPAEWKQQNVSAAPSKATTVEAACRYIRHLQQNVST
| Strand | fluorescence intensity [a.u.] |
| --- | --- |
| CTTCTGTAAATTTTTCACGTGACGTGAAGCGCCCCG | 10600 |
| CTCAAGCTTATGGTTCACGTTATAGAACACAGGAGA | 6010 |
| AAAAAACGAATGACTCACGTTATCAGGCTCATAGCT | 5950 |
| CTTACCGTCAACTTTGACGTGACGGAGCATCAAGAT | 3670 |
| GTCCCCACCTCCTGTCACATGACAATTTTTGTTACT | 6940 |
| AAAGCGGTAATTTGAACAGTGGGTGCAGATATCTAT | 3810 |
| CACAGATGAGTCAGCTTCGTGATGGCCTGTTTCGGT | 4170 |
| ACCGCAATGGCGCTTCACGTGTTGGGTAACCACAAC | 12900 |
| AAATTACTAAGTTTTCACGTGTTCTACCCCGTATGA | 15400 |
| AACGAGCTCTGCTGGCACGCATTGAAGTTGGTTCAT | 9800 |
| TGGTATATTGCCGTTTTCTGTATCAGTTGCTGATAT | 3250 |
| TGCGCAACAACTTGAAAGGTGGGTGTATGTCTAGAA | 4580 |
| TGCGCAACAACTTTTCACGTGTCGTTATGTCTAGAA | 14500 |
| CATACCCAACCTTTTCACGTGCCATAAGATATTTGT | 15800 |
| AAAGCGGTAATTTCTCACGTGTTTTCACATATCTAT | 13100 |
| CATACCCAACCTTGCGGCGTGGGTGAAGATATTTGT | 9160 |
| CGGGGTTAAGTTTGGATCGTGGGTGGCTTGCAGCAG | 8240 |
| TTCAACGCTTTGAAACACGTGACGAAGATGCGGGTC | 14600 |
| CATCAATCTTTCCATCACGCAATGGCTTGTTGTTTT | 6370 |

Sample 4
Target: CCNB3, cyclin fold, Cln2 fusion (human)
Technique: yeast growth competition, sequencing
Matrix: yeast
Notes: weak parent motif
Relative to: not given
Direction: higher = stronger binding
Starting sequence: CDC6 docking peptide (human); TLKGRRLVFDNQL
| Change | normalised enrichment score |
| --- | --- |
| TLKGRRYVFDNQL [L7Y] | 0.28 |
| TLKGRRLVFHNQL [D10H] | -0.00628 |
| TLKGRRLMFDNQL [V8M] | -0.0311 |
| TGKGRRLVFDNQL [L2G] | 0.175 |
| TRKGRRLVFDNQL [L2R] | 0.513 |
| TLKGRRMVFDNQL [L7M] | 0.0589 |
| TLKGRRLVFDNQH [L13H] | -0.0617 |
| TLKFRRLVFDNQL [G4F] | 0.5 |
| TLKGRRLVFGNQL [D10G] | -0.45 |
| TLKGNRLVFDNQL [R5N] | 0.0213 |
| TLKGRRLAFDNQL [V8A] | -0.51 |
| TLKGRRLEFDNQL [V8E] | 0.518 |
| TLKGRRLVHDNQL [F9H] | 0.0484 |
| TLKGRRLVFDNQS [L13S] | 0.377 |
| TLKGYRLVFDNQL [R5Y] | -0.294 |
| TLKGRRLVFDNQY [L13Y] | 0.364 |
| TLKCRRLVFDNQL [G4C] | 0.768 |
| TLKGRRLVFDNQP [L13P] | 0.463 |
| TLLGRRLVFDNQL [K3L] | 0.598 |
| TLIGRRLVFDNQL [K3I] | 0.445 |
| TEKGRRLVFDNQL [L2E] | -0.183 |
| TLKGRRLVLDNQL [F9L] | 0.497 |
| TAKGRRLVFDNQL [L2A] | -0.101 |
| TLKGRRLVADNQL [F9A] | 0.169 |
| TLQGRRLVFDNQL [K3Q] | 0.13 |

Some of these lines once more (sample 4):
| Change | normalised enrichment score |
| --- | --- |
| TLKGRRLAFDNQL [V8A] | -0.51 |
| TLKGRRLEFDNQL [V8E] | 0.518 |
| TLKGRRLVHDNQL [F9H] | 0.0484 |
| TLKGRRLVFDNQS [L13S] | 0.377 |
| TLKGYRLVFDNQL [R5Y] | -0.294 |
| TLKGRRLVFDNQY [L13Y] | 0.364 |
| TLKCRRLVFDNQL [G4C] | 0.768 |
| TLKGRRLVFDNQP [L13P] | 0.463 |
